# Published values of several laboratories.
# Lines come from different studies, so protocols differ. ± marks the error that the study gave.
Compound,tested on,assay,test system,setting,how to read,measurement,result
CN1CCC[C@]1(C)/C=C/S(=O)(=O)NC(=O)Nc1c2c(cc3c1CCC3)CCC2,,,"human, whole blood ex vivo","25 mg single dose, 12 h, single ascending dose, added: LPS and ATP",,IL-18 inhibition,96.6%
C[n+]1ccc(/C=N/NC(=O)N/N=C/c2cc[n+](C)c3ccccc23)c2ccccc21,myc22 MYC G4-DNA parallel,FRET melting,,"1 µM, K1 buffer, DNA 0.2 µM, added: ds26 10 µM",,ΔTm,4.3 ± 0.4 °C
CCCCNCCO.O=C(O)C(Cl)Cl,Eleusine indica,,,"15 mg/mL, 21 days, post-emergence, greenhouse",,herbicidal inhibition,0%
C=CC(=O)N1[C@H](c2ccc3c(c2)OCO3)c2[nH]c3ccccc3c2C[C@@H]1C(=O)N1CCN(C)CC1,human cyclin E1 N112C-3xFLAG:CDK2,"co-IP with TMT proteomics, refers to: HNRNPH1",,"concentration not given, P31943",reference: wild type DMSO,relative co-enrichment,154%
COC1CN([C@H]2CC[C@H]([C@@]3(C)Oc4c(Cl)cc(C(=O)NCc5c(SC)cc(C)[nH]c5=O)c(C)c4O3)CC2)C1,,"RNA-seq, refers to: ACKR2 mouse homolog","mouse, HT-1376 xenograft, whole blood",dose not given,reference: vehicle,log2 fold change,0.552
C[n+]1ccc(/C=N/NC(=O)c2ccc3ccc4ccc(C(=O)N/N=C/c5cc[n+](C)cc5)nc4c3n2)cc1,myc22 MYC G4-DNA parallel,FRET melting,,"1 µM, K1 buffer, DNA 0.2 µM",,ΔTm,19.8 ± 0.5 °C
C=CC(=O)Nc1cccc(Cn2ncc3cnc(Nc4cnn(CCOC)c4)nc32)c1,EPHA4 human,"binding, KINOMEscan",,100 nM,lower = stronger binding,percent of control,100%
O=C(N/N=C/c1cc[n+](Cc2ccccc2)c2ccccc12)c1ccc2ccc(C(=O)N/N=C/c3cc[n+](Cc4ccccc4)c4ccccc34)nc2n1,myc22 MYC G4-DNA parallel,FRET melting,,"1 µM, K1 buffer, DNA 0.2 µM, added: ds26 10 µM",,ΔTm,15.7 ± 1.1 °C
C=C(NC(=O)c1csc(-c2nc3c(cc2O)-c2nc(cs2)C(=O)NC(C(C)O)C(=O)NC(=C(C)OC)c2nc(cs2)C(=O)NC2c4nc(cs4)C(=O)NC(COC(=O)c4c5c6c(cccc6n4O)COC(=O)C(OC4CC(C)(O)C(N(C)C)C(C)O4)C2OC5)c2nc-3cs2)n1)C(N)=O (stereo not drawn),Staphylococcus epidermidis,broth microdilution,methicillin-resistant isolates,,,MBC,0.25 µg/mL
C[n+]1cc(/C=N/NC(=O)c2ccc3ccc(C(=O)N/N=C/c4cc5ccccc5[n+](C)c4)nc3n2)cc2ccccc21,myc22 MYC G4-DNA parallel,FRET melting,,"1 µM, K1 buffer, DNA 0.2 µM",,ΔTm,17.2 ± 0.3 °C
CC(=O)[O-].O.O.O.O.[Mn+2].[O-]c1ccc(Br)cc1C=NCCN1CCOCC1,,hydroxyl radical scavenging,,160 µM,,inhibition,36.8%
CNS(=O)(=O)Nc1nccc(Cc2c(C)c3ccc(Oc4ncccc4F)cc3oc2=O)c1F,ZR-75-30,cell viability,,7 days,,IC50,> 1000 nM
CC(O)CNCC(C)O.O=C(O)C(Cl)Cl (stereo not drawn),Eclipta prostrata,,,"15 mg/mL, 21 days, pre-emergence, greenhouse",,herbicidal inhibition,0%
O=C(N/N=C/c1ccc(C[n+]2ccccc2)cc1)N/N=C/c1ccc(C[n+]2ccccc2)cc1,myc22 MYC G4-DNA parallel,FRET melting,,"1 µM, K1 buffer, DNA 0.2 µM, added: ds26 10 µM",,ΔTm,4.3 ± 0.4 °C
Nc1ncc(-c2cc(-c3cnn(CC(F)(F)F)c3)ncc2F)nc1C(=O)NC1CNCC(F)C1 (stereo not drawn),NEK2,KINOMEscan,,1 µM,reference: DMSO control,remaining binding,86%
C[n+]1ccc(/C=N/NC(=O)N/N=C/c2cc[n+](C)cc2)cc1,myc22 MYC G4-DNA parallel,FRET melting,,"1 µM, K1 buffer, DNA 0.2 µM, added: ds26 10 µM",,ΔTm,3.1 ± 0.6 °C
Cc1ncsc1-c1ccc(C(C)NC(=O)C2CC(O)CN2C(=O)C(NC(=O)CCCCCCCCCCN2CCCC(Nc3ncc(Cl)c(Nc4ccccc4S(=O)(=O)C(C)C)n3)C2)C(C)(C)C)cc1 (stereo not drawn),22Rv1,"RNA-seq, refers to: ZNF142 mRNA",,concentration not given,reference: DMSO,log2 fold change,-1.55
CN1CCCNC(=O)c2cccc(c2)C(=O)NCCCN(C)CCCNc2cccc3c2C(=O)c2cccc(c2C3=O)NCCC1,SAS,"RNA-Seq, refers to: SRSF11 mRNA",,"1 µM, 6 h",reference: untreated cells,log2 fold change,0.534
C[n+]1cccc2cc(/C=N/NC(=O)C(=O)N/N=C/c3ccc4c(ccc[n+]4C)c3)ccc21,myc22 MYC G4-DNA parallel,FRET melting,,"1 µM, K1 buffer, DNA 0.2 µM",,ΔTm,2.9 ± 0.2 °C
CCN(CC)CC(=O)Nc1cccc(-n2cc(-c3ccc4ccc(-c5cn(-c6cccc(NC(=O)CN(CC)CC)c6)nn5)cc4c3)nn2)c1,RCC4,"PCR angiogenesis array, refers to: FGFR3",,"5 x IC50, 2 h, normoxia",reference: untreated,fold regulation,1.02
COc1ccc(C(=O)CCc2cc(C(CCc3ccc(O)cc3OC)c3ccc(O)cc3)c(O)cc2OC)cc1 (racemic),,,human blood,"0.3 µM, added: A23187",,20-OH-LTB4 level,488 ± 175 pg/mL
c1ccc(-c2n[nH]cc2-c2ccnc3ccccc23)nc1,KIC1 (Candida albicans),"kinase binding, MIB/MS competition",Candida albicans lysate,1 µM,reference: DMSO,log2 fold change,0.01
O=C(N/N=C/c1cc[n+](CC2CC2)c2ccccc12)c1ccc2ccc3ccc(C(=O)N/N=C/c4cc[n+](CC5CC5)c5ccccc45)nc3c2n1,myc22 MYC G4-DNA parallel,FRET melting,,"1 µM, K1 buffer, DNA 0.2 µM",,ΔTm,24.6 ± 0.7 °C
COc1cc(O)ccc1CCC(c1ccc(O)cc1)c1cc2c(c(C)c1O)OC(c1ccc(O)cc1)CC2 (mixture of isomers),,refers to: PGF2α,human whole blood,"3 µM, added: Escherichia coli",,amount,602 ± 294 pg/mL blood

# Some of these lines once more:
Compound,tested on,assay,test system,setting,how to read,measurement,result
CC(=O)[O-].O.O.O.O.[Mn+2].[O-]c1ccc(Br)cc1C=NCCN1CCOCC1,,hydroxyl radical scavenging,,160 µM,,inhibition,36.8%
CNS(=O)(=O)Nc1nccc(Cc2c(C)c3ccc(Oc4ncccc4F)cc3oc2=O)c1F,ZR-75-30,cell viability,,7 days,,IC50,> 1000 nM
CC(O)CNCC(C)O.O=C(O)C(Cl)Cl (stereo not drawn),Eclipta prostrata,,,"15 mg/mL, 21 days, pre-emergence, greenhouse",,herbicidal inhibition,0%
